# Experimental data gathered from unrelated publications.
# Each numbered part is a random draw from the data of one study; scales do not carry over between parts. Substitutions count along the parent as printed.

# Sample 1
# Target: RNA binding protein fox-1 homolog 2, RRM domain, GST-SBP tag (RBFOX2, Homo sapiens, UniProt O43251-10, residues 100-194)
# Technique: RNA Bind-n-Seq
# Form: RNA
# Matrix: in vitro
# Tested at: 365 nM
# Notes: natural RNA segment, single round, ends assumed
# Reference: no-protein control
# Direction: higher = stronger binding
# All sequences stand within: GGGAGUUCUACAGUCCGACGAUC … UGGAAUUCUCGGGUGCCAA
# Construct (chain): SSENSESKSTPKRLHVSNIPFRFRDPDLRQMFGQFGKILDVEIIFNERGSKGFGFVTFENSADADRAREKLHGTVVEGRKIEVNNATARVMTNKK
Oligonucleotide,RBNS enrichment (R)
UUGAGAUCCUUGCUGGAUGCCGACCAGGAUUUCAUGUGAGGGCCAGGGAUGCACAGACCUGGUCAAUCUUUGGCUGAUUGAAAGAGCCUCAGUAAAGAGACAAGGAGAGA,2.5
GUGGUUUCGUAGAGUAAAACCCAAGUGAGGAGGGAUGUGUGGGGUUUCCAUUAGGAAAUAAUUUCGUUCUUGGUUUACUCUUUAAGAUCCUUCUCUGCUAGUUUAGAAUA,1.27
UCCAUUAUCUUUUUGGACACAGUGAAUAUGUUUUUUAGCUAAAAAUGUCCUUGGAAACAUAAAUGCCUGCCAAUAACAUGGAAUAUUGAAUUCGGGCAAUGUGAAUUGAU,0.687
CGGCAGCCACUCUGCGUCUCUCACCUGCCAGGCCUGCGUGGCCUUAGGGUUGUUCCUGUUCUUUUAGGUUGGGCGGUGGGUCUGUGUCCUGGUGUUGAGUUUCUGCAAAU,0.413
CCAUAACAUAGCAGUGAAUCAGUCUCAGUGGUAUUGCUGAUAGCAGUAUUCAGGAAUAUGUGAUUUUAGGAGUUUCUGAUCCUGUGUGUCAGAAUGGCACUAGUUCAGUU,0.458
CUCGUGUGGUUAGAUCCCAGGCUCUCUGCUCACCUGUAGAUCGCAGAUCCUGCUGGAGGGUGGUUCUCUUUAGCACUGUCCACUUUGAAUGCCGAGUGUCAUAAGAAAUU,0.509
UAAUAACCUGGUUAUCUACCUGUUCCAUUCCAUGGAACCAUGGAGGAGGAAGACCCUCAGUUAUUUUGUCACCCAACCUGGCAUAGGACUCUUUGGUCCUACCCGCUUCC,0.276
UGUUCAUCUGCUGCUGUUUACAUUCUGGGGGGUUAGGGGGAGUCCCCCUCCCUCCCUUUCCCCCCCAAGCACAGAGGGGAGAGGGGCCAGGGAAGUGGAUGUCUCCUCCC,0.372

# Sample 2
# Target: PABPC1L2, full length, GST fusion (mouse, UniProt A0ABA7IW68)
# Technique: RNAcompete
# Form: RNA
# Matrix: in vitro
# Tested at: 20 nM
# Notes: 7-mer, probes averaged, single round
# Reference: mean of 7-mers
# Direction: higher = stronger binding
# Residues (chain): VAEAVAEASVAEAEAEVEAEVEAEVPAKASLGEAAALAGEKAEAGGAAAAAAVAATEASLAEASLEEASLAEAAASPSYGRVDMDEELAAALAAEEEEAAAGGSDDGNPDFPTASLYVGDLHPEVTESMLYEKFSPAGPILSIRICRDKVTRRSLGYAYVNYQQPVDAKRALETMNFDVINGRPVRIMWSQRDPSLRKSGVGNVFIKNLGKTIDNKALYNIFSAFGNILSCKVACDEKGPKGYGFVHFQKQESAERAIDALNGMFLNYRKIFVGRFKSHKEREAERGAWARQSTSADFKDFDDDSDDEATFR
Oligonucleotide,7-mer Z-score
GCCACAA,0.129
UAUUGUA,-0.215
AGGAGAC,0.171
GCACCGA,0.0623
AUCCGGC,-0.26
CUACUGA,-0.231
GUGUAAG,-0.0228
UCAAACG,-0.0663

# Sample 3
# Substitution: D153M
# Target: ABI1, truncated, D143A, DHFR fusion (Arabidopsis thaliana)
# Technique: DHFR PCA, deep sequencing
# Matrix: yeast
# Notes: methotrexate growth selection, single substitutions
# Reference: wild-type fitted maximum
# Direction: higher = stronger binding
# Starting sequence: PYL1, truncated, DHFR fusion (Arabidopsis thaliana); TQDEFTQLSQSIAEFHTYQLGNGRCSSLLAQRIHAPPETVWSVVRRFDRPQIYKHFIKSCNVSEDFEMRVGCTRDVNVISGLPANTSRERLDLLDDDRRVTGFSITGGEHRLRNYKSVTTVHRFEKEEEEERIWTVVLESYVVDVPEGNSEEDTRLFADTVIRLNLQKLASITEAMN; partner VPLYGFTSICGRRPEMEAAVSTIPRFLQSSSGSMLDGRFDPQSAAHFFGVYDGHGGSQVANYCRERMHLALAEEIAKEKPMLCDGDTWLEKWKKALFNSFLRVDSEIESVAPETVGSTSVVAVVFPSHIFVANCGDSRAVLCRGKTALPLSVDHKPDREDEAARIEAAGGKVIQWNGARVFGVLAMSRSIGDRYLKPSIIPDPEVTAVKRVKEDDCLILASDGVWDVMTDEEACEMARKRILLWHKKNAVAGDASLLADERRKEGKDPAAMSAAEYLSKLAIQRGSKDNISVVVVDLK
conditions,relative binding score [%]
with: (+)-ABA 58 µM,5.31
with: (+)-ABA 0.032 µM,0.221
with: (+)-ABA 200 µM,18
with: (+)-ABA 4.8 µM,-13.3
with: (+)-ABA 1.4 µM,-1.37
with: (+)-ABA 710 µM,42.2

# Other studies, line by line
# Starting sequence: PafA, mature enzyme, eGFP fusion (Elizabethkingia meningoseptica, UniProt Q9KJX5); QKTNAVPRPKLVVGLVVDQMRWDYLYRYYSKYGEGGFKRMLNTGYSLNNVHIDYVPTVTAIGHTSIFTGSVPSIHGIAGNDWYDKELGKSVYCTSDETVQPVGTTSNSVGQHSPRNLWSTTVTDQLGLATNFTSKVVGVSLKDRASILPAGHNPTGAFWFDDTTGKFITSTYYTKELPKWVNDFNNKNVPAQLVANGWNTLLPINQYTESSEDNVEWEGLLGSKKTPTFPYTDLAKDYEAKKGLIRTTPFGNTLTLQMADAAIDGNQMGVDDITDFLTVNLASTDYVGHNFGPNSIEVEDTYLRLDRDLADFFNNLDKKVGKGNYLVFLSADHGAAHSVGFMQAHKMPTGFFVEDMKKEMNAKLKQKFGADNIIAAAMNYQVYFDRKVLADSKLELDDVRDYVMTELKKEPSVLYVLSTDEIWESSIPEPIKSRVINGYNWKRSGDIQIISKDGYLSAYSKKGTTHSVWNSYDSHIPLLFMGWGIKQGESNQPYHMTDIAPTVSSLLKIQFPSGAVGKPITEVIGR
Substitution,target,test,system,conditions,scale,quantity,result
G369V,"tungstate, free oxyanion",microfluidic competitive inhibition,"in vitro, cell-free expressed","not given, derived from inhibition constants, unchanged parent 2230 nM",lower = stronger binding,oxyanion analog dissociation constant,3.34 µM

# For quick reference, copied from above (sample 1):
Oligonucleotide,RBNS enrichment (R)
UUGAGAUCCUUGCUGGAUGCCGACCAGGAUUUCAUGUGAGGGCCAGGGAUGCACAGACCUGGUCAAUCUUUGGCUGAUUGAAAGAGCCUCAGUAAAGAGACAAGGAGAGA,2.5
GUGGUUUCGUAGAGUAAAACCCAAGUGAGGAGGGAUGUGUGGGGUUUCCAUUAGGAAAUAAUUUCGUUCUUGGUUUACUCUUUAAGAUCCUUCUCUGCUAGUUUAGAAUA,1.27
